Measured values gathered from unrelated publications.
Compare with care: the assays were run in different laboratories.
Molecule type: peptide
HLA class I histocompatibility antigen, A alpha chain allele A*02:01: HLA class I histocompatibility antigen, A alpha chain, allele A*02:01 (Homo sapiens, UniProt P04439)
HLA class I histocompatibility antigen, A alpha chain: HLA class I histocompatibility antigen, A alpha chain (Homo sapiens, UniProt P04439)

Sequence = IMQLMPFG; target = HLA class I histocompatibility antigen, A alpha chain allele A*02:01; test = conformational ELISA; setting = concentration not given; how to read = relative to: positive control peptide, direction not given; endpoint = binding score; result = 7.3%
Sequence = FLLVTPHLTK; target = HLA class I histocompatibility antigen, A alpha chain; test = peptide-MHC binding, iTopia initial binding; system = plate-bound HLA heavy chain; setting = 11 µM, 18 h, 21 °C, HLA-A3 allele; how to read = relative to: allele-matched positive control peptide; endpoint = binding; result = 67%
Sequence = VMNILLQYV; target = HLA class I histocompatibility antigen, A alpha chain allele A*02:01; setting = concentration not given; endpoint = peptide exchange; result = ~86%
Sequence = MQLMPFGCLL; target = HLA class I histocompatibility antigen, A alpha chain allele A*02:01; test = conformational ELISA; setting = concentration not given; how to read = relative to: positive control peptide, direction not given; endpoint = binding score; result = 57.6%
Sequence = LMFGAPALV; target = HLA class I histocompatibility antigen, A alpha chain allele A*02:01; test = HLA-A2 stabilization, peptide titration; system = T2; setting = 20 h, 37 °C, added: human β2-microglobulin 100 ng/mL; how to read = relative to: HIVpol reference peptide, lower is stronger; endpoint = relative affinity; result = 1.27
Sequence = TVTLFNVTR; target = HLA class I histocompatibility antigen, A alpha chain; test = iTopia initial binding; setting = 11 µM, 18 h, 21 °C, HLA-A3 allele; how to read = relative to: allele positive control peptide; endpoint = binding; result = 23%
Sequence = ALYDVRTIL; target = HLA class I histocompatibility antigen, A alpha chain allele A*02:01; test = HLA-A2 stabilization, peptide titration; system = T2; setting = 20 h, 37 °C, added: human β2-microglobulin 100 ng/mL; how to read = relative to: HIVpol reference peptide, lower is stronger; endpoint = relative affinity; result = 14.3
Sequence = LIMQLMPFGCL; target = HLA class I histocompatibility antigen, A alpha chain allele A*02:01; test = complex stability, off-rate; setting = 37 °C; endpoint = half-life of peptide-HLA complex; result = 1.7 h
Sequence = AMNSLSLYI; target = HLA class I histocompatibility antigen, A alpha chain allele A*02:01; test = HLA-A2 stabilization, peptide titration; system = T2; setting = 20 h, 37 °C, added: human β2-microglobulin 100 ng/mL; how to read = relative to: HIVpol reference peptide, lower is stronger; endpoint = relative affinity; result = 6.78
Sequence = GIQNSVSANK; target = HLA class I histocompatibility antigen, A alpha chain; test = iTopia initial binding; setting = 11 µM, 18 h, 21 °C, HLA-A3 allele; how to read = relative to: allele positive control peptide; endpoint = binding; result = 51%

A few entries again:
Sequence = LIMQLMPFGCL; target = HLA class I histocompatibility antigen, A alpha chain allele A*02:01; test = complex stability, off-rate; setting = 37 °C; endpoint = half-life of peptide-HLA complex; result = 1.7 h
